# Published values pooled from the literature.
# Lines come from different studies, so protocols differ. ± gives the spread as reported.
Compound,tested on,test,system,conditions,how to read,measurement,value
CC[C@H](C)[C@H](NC(=O)[C@H](CCCNC(=N)N)NC(=O)[C@H](CCCCN)NC(=O)[C@H](Cc1ccc(O)cc1)NC(=O)[C@H](CC(=O)O)NC(=O)[C@H](C)NC(=O)CNC(=O)CCOCCOCCOCCNC(=O)CN1CCN(CC(=O)O)CCN(CC(=O)O)CCN(CC(=O)O)CC1)C(=O)N[C@H](C(=O)N[C@H](C(=O)N[C@@H](CCCCN)C(=O)N[C@H](C(=O)N[C@@H](CC(N)=O)C(N)=O)C(C)C)C(C)C)[C@@H](C)O [copper-64 labelled],,ex vivo gamma counting,"C57BL/6J male mice, B16-F10 tumour, kidney","intravenous, 1.85 MBq, 40 min",,tissue uptake,11 ± 0.227 %ID/g
CSCC[C@H](NC(=O)CNC(=O)[C@H](CCCCN)NC(=O)[C@H](CC(C)C)NC(=O)[C@@H]1CCCN1C(=O)[C@H](CO)NC(=O)[C@H](Cc1c[nH]cn1)NC(=O)[C@H](Cc1c[nH]c2ccccc12)NC(=O)[C@H](CCCNC(=N)N)NC(=O)[C@H](CC(C)C)NC(=O)[C@H](CCCNC(=N)N)NC(=O)[C@H](Cc1c[nH]c2ccccc12)NC(=O)[C@H](CS)NC(=O)CCCCCNC(=O)CN1CCN(CC(=O)O)CCN(CC(=O)O)CCN(CC(=O)O)CC1)C(=O)O [copper-64 labelled],,ex vivo biodistribution,"male C57BL/6J mice, muscle","intravenous, 1.85 MBq, 18 h, B16-F10 tumour-bearing",,tissue uptake,0.32 %ID/g
CCCC[C@H]1C(=O)N(C)[C@@H](CCCC)C(=O)N[C@@H](CCCNC(=O)CN2CCN(CC(=O)O)CCN(CC(=O)O)CCN(CC(=O)O)CC2)C(=O)N[C@H](C(=O)NCC(N)=O)CSCC(=O)N[C@@H](Cc2ccc(O)cc2)C(=O)N(C)[C@@H](C)C(=O)N[C@@H](CC(N)=O)C(=O)N2CCC[C@H]2C(=O)N[C@@H](Cc2c[nH]cn2)C(=O)N[C@@H](CC(C)C)C(=O)N(C)CC(=O)N[C@@H](Cc2c[nH]c3ccccc23)C(=O)N[C@@H](CO)C(=O)N[C@@H](Cc2c[nH]c3ccccc23)C(=O)N1C [gallium-68 labelled],,,"NOD/SCID mice with CHO-hPD-L1 xenograft, stomach",30 min post injection,,tissue uptake,2.41 ± 0.12 %ID/g
CC[C@H](C)[C@H](NC(=O)[C@H](CCCCN)NC(=O)CNC(=O)[C@H](CC(C)C)NC(=O)[C@H](Cc1ccccc1)NC(=O)[C@H](CCCCN)NC(=O)[C@H](CO)NC(=O)[C@H](Cc1ccccc1)NC(=O)[C@H](Cc1c[nH]c2ccccc12)NC(=O)[C@H](CCC(N)=O)NC(=O)[C@@H](NC(=O)[C@H](Cc1ccccc1)NC(=O)CCCCCNC(=O)CN1CCN(CC(=O)O)CCN(CC(=O)O)CCN(CC(=O)O)CC1)C(C)C)C(=O)N[C@@H](CCC(=O)O)C(=O)N1CCC[C@H]1C(=O)N[C@@H](CC(=O)O)C(=O)N[C@H](C(=O)N[C@@H](CO)C(=O)N[C@@H](CCC(N)=O)C(=O)N[C@H](C(=O)N[C@@H](CCC(N)=O)C(=O)N[C@@H](CC(=O)O)C(=O)N1CCC[C@H]1C(=O)N[C@@H](CC(N)=O)C(=O)N[C@@H](CC(=O)O)C(=O)N[C@@H](CCC(N)=O)C(=O)N[C@@H](Cc1ccc(O)cc1)C(=O)N[C@@H](CCC(=O)O)C(=O)N1CCC[C@H]1C(=O)N[C@@H](Cc1ccccc1)C(=O)O)C(C)C)C(C)C [copper-64 labelled],,,"GZMB-/- mice, CT26 tumour-bearing, heart","2 h, checkpoint inhibitor-treated",,tissue uptake,0.81 ± 0.4 %ID/g
CC(C)(C)C(=O)OCOP(=O)(OCOC(=O)C(C)(C)C)C1CCCN(O)C1=O (stereo not drawn),MDA-MB-468,,,,,TGI,5.48 µM
CN1Cc2cc(Cl)ccc2-n2c(nnc2C2CCN(c3cccc([18F])n3)CC2)C1,,,"C57BL/6 mouse male, adrenal gland","intravenous, 3.7 MBq, 30 min",,tissue uptake,11.7 ± 8.31 %ID/g
C[C@H](O)[C@@H](NC(=O)[C@H]1CCCN1C(=O)[C@@H](CCCCN)NC(=O)[C@@H](CO)NC(=O)[C@@H](Cc1ccc(O)cc1)NC(=O)[C@@H](CC(N)=O)NC(=O)CCOCCOCCOCCNC(=O)CN1CCN(CC(=O)O)CCN(CC(=O)O)CCN(CC(=O)O)CC1)C(=O)N[C@H](CC(=O)O)C(=O)N[C@H](CCCNC(=N)N)C(=O)N[C@H](CCC(N)=O)C(=O)N[C@H](Cc1ccc(O)cc1)C(=O)N[C@H](Cc1c[nH]cn1)C(=O)N[C@H](Cc1ccccc1)C(N)=O [copper-64 labelled],,,"C57BL/6J mice, pancreas","intravenous, 1.85 MBq, 0.3333 h, radiolabelled",,tissue uptake,0.51 ± 0.08 %ID/g
COc1ccccc1-c1n[nH]c2nc(NC3CCN(C(=O)Cc4ccc(F)cc4F)CC3)ncc12,,"bead binding, competition bead pull-down, measured: LINJ.35.1240",Leishmania donovani axenic amastigote extract,10 µM,baseline: vehicle,relative abundance,1.02
CC[C@H](C)[C@H](NC(=O)[C@H](CCCNC(=N)N)NC(=O)[C@H](CCCCN)NC(=O)[C@H](Cc1ccc(O)cc1)NC(=O)[C@H](CC(=O)O)NC(=O)[C@H](C)NC(=O)CNC(=O)CCOCCOCCOCCNC(=O)CN1CCN(CC(=O)O)CCN(CC(=O)O)CCN(CC(=O)O)CC1)C(=O)N[C@H](C(=O)N[C@@H](CC(C)C)C(=O)N[C@@H](CCCCN)C(=O)N[C@H](C(=O)N[C@@H](CC(N)=O)C(N)=O)C(C)C)[C@@H](C)O [copper-64 labelled],,,"C57BL/6J mouse male, B16-F10 tumour, small intestine","intravenous, 1.85 MBq, 5 min, 67Ga complex",,tissue uptake,1.46 ± 0.155 %ID/g
Cc1nc2cccc(OCC(C)(C)C(=O)NC(C)C)c2c(N)c1C(=O)[O-].[Na+],Salmonella typhimurium,Ames preincubation,TA98,"0.32 mg/plate, together with: with rat liver S9",,revertant colonies,45 ± 7 colonies/plate
CC(C)C[C@@H](NC(=O)[C@@H](CCCNC(=N)N)NC(=O)[C@@H](Cc1c[nH]cn1)NC(=O)[C@@H](Cc1c[nH]c2ccccc12)NC(=O)[C@@H](Cc1c[nH]cn1)NC(=O)[C@@H](Cc1ccccc1)NC(=O)[C@H](NC(=O)[C@@H](Cc1ccc(O)cc1)NC(=O)CNC(=O)CNC(=O)CCOCCOCCOCCNC(=O)CN1CCN(CC(=O)O)CCN(CC(=O)O)CC1)[C@H](C)O)C(=O)N[C@H](CC(N)=O)C(=O)N1CCC[C@@H]1C(=O)O [gallium-68 labelled],,gamma counting,"C57BL/6 mice, male, liver","intravenous, 1.85 MBq, 60 min",,tissue uptake,0.94 ± 0.18 %ID/g
O=C1NC2(CC2)COc2ncc(F)cc2[C@H]2COCCN2c2ccn3ncc1c3n2,,,"Sprague-Dawley rat, male, serum","oral, 5 mg/kg/day, end of treatment, 4-week subacute toxicity",,serum hepatic lipase activity,3.3 ± 1.2 U/L
